{"data": "Experimental data collected from several papers", "HSP90AA1": "Heat shock protein HSP 90-alpha (HSP90AA1, Homo sapiens, UniProt P07900)", "HSP90AA1 C-terminal domain": "Heat shock protein HSP 90-alpha, C-terminal domain (HSP90AA1, Homo sapiens, UniProt P07900)", "note": "± gives the spread as reported."}
{"SMILES": "CC(C)c1cc(-n2nnc(C(=O)Nc3c(F)ccc(NS(=O)(=O)N4CCCC4)c3F)c2-c2ccncc2)c(O)cc1O", "target": "HSP90AA1", "test": "ligand displacement, FP", "quantity": "IC50", "result": "0.5 µM"}
{"SMILES": "COc1cc(S(=O)(=O)Nc2ccc(Nc3ccnc(N4CCCC4)n3)cc2)c(C)cc1C", "target": "HSP90AA1", "test": "ATPase activity, inhibitor", "quantity": "IC50", "result": "> 100 µM"}
{"SMILES": "CC[C@H](C)[C@H](NC(=O)[C@@H]1CCCN1C(=O)[C@H](CC(C)C)NC(C)=O)C(=O)N[C@@H](CO)C(=O)N[C@H](C(=O)NCC(=O)NCC(=O)N[C@@H](Cc1ccccc1)C(=O)N[C@@H](CCC(N)=O)C(=O)N[C@@H](CCSC)C(=O)N[C@@H](C)C(=O)N[C@@H](CC(C)C)C(=O)N[C@H](C(=O)N1CCC[C@H]1C(=O)N[C@H](C(=O)N[C@H](C(=O)O)C(C)C)C(C)C)[C@@H](C)O)[C@@H](C)O", "target": "HSP90AA1", "test": "binding, MST", "quantity": "Kd", "result": "~90 µM"}
{"SMILES": "C=CCNC1=C2C[C@@H](C)C[C@H](OC)[C@H](O)[C@@H](C)[C@@H]3O[C@@]3(C)[C@H](OC(N)=O)[C@@H](OC)/C=C\\C=C(/C)C(=O)NC(=CC1=O)C2=O", "target": "HSP90AA1", "test": "ligand displacement, FP", "quantity": "Kd", "result": "> 10 µM"}
{"SMILES": "CCOc1ccccc1Cc1ccccc1CCc1c(Cl)c(O)cc(O)c1C(=O)OC", "target": "HSP90AA1", "test": "ligand displacement, FP", "quantity": "Kd", "result": "> 100 µM"}
{"SMILES": "COc1cc(/C=C/C(=O)NCCCCCCNC2=C3C[C@@H](C)C[C@H](OC)[C@H](O)[C@@H](C)/C=C(\\C)[C@H](OC(N)=O)[C@@H](OC)/C=C\\C=C(/C)C(=O)NC(=CC2=O)C3=O)ccc1O", "target": "HSP90AA1", "test": "ligand displacement, FP", "quantity": "IC50", "result": "0.41 µM"}
{"SMILES": "CCC(C)n1c(C(=O)Nc2cnc(C(=O)NC)n(CC(C)C)c2=O)ncc(NC(=O)c2ncc(NC(=O)c3ccccc3)c(=O)n2Cc2ccc(OC)cc2)c1=O (centres unmarked)", "target": "HSP90AA1 C-terminal domain", "test": "binding, microscale thermophoresis", "setting": "C-terminal domain", "quantity": "Kd", "result": "3.42 ± 1 µM"}
{"SMILES": "O=C1c2ccc(O)cc2-c2c(-c3ccc(O)cc3)oc3cc(O)cc1c23", "target": "HSP90AA1 C-terminal domain", "test": "binding, fluorescence polarization", "setting": "C-terminal domain fragment", "quantity": "Kd", "result": "8.01 µM"}
{"SMILES": "COC(=O)c1c(O)cc(O)c(Cl)c1CCc1ccccc1Cc1ccccc1OC", "target": "HSP90AA1", "test": "ligand displacement, FP", "quantity": "Kd", "result": "> 100 µM"}
{"SMILES": "Cc1cc(C)c(S(=O)(=O)N(CC(=O)O)c2ccc(Nc3ccnc(N4CCCC4)n3)cc2)c(C)c1", "target": "HSP90AA1 (Homo sapiens, UniProt P07900, Q133A)", "test": "binding, biolayer interferometry", "setting": "mutant Q133A", "quantity": "Kd", "result": "5.18 µM"}
{"SMILES": "CCC(C)n1c(C(=O)Nc2cnc(C(=O)NC)n(CC(C)C)c2=O)ncc(NC(=O)c2ncc(NC(=O)c3ccccc3)c(=O)n2Cc2ccc(O)cc2)c1=O (centres unmarked)", "target": "HSP90AA1 C-terminal domain", "test": "binding, microscale thermophoresis", "setting": "C-terminal domain", "quantity": "Kd", "result": "286 µM"}
{"note": "Repeated from above:"}
{"SMILES": "CC[C@H](C)[C@H](NC(=O)[C@@H]1CCCN1C(=O)[C@H](CC(C)C)NC(C)=O)C(=O)N[C@@H](CO)C(=O)N[C@H](C(=O)NCC(=O)NCC(=O)N[C@@H](Cc1ccccc1)C(=O)N[C@@H](CCC(N)=O)C(=O)N[C@@H](CCSC)C(=O)N[C@@H](C)C(=O)N[C@@H](CC(C)C)C(=O)N[C@H](C(=O)N1CCC[C@H]1C(=O)N[C@H](C(=O)N[C@H](C(=O)O)C(C)C)C(C)C)[C@@H](C)O)[C@@H](C)O", "target": "HSP90AA1", "test": "binding, MST", "quantity": "Kd", "result": "~90 µM"}
